Results gathered from unrelated publications.
Lines come from different studies, so protocols differ. Numbers after ± are the reported error. In brackets after ≈: the same amount, converted by molar mass.
Chain of UniProt P49761 (whole entry, looked up): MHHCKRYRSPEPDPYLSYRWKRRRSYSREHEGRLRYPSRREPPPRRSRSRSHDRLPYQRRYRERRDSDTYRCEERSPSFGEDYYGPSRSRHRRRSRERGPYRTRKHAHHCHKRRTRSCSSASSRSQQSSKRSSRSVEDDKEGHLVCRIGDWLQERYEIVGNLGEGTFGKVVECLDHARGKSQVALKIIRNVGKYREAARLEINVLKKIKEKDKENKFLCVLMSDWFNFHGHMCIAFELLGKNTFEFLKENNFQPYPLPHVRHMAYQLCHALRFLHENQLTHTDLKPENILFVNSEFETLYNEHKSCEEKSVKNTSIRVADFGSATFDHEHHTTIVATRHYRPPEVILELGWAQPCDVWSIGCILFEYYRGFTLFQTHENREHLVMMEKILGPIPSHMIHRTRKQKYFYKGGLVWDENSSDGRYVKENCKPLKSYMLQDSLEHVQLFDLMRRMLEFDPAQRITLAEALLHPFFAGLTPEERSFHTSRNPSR
Chain of UniProt Q12933 (whole entry, looked up): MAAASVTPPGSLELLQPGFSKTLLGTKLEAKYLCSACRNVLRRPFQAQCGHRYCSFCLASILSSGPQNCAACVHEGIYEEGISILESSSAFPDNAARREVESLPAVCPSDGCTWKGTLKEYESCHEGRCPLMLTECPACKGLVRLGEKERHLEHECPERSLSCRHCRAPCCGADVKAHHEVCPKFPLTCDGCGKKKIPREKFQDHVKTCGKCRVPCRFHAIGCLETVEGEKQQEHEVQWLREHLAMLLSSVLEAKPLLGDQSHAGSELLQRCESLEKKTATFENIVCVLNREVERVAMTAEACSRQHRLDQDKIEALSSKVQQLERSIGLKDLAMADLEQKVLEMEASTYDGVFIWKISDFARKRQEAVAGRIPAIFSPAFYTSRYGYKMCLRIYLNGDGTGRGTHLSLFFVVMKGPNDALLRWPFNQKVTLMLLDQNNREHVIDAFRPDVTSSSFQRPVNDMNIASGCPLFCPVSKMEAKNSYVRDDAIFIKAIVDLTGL
Chain of UniProt O43613 (whole entry, looked up): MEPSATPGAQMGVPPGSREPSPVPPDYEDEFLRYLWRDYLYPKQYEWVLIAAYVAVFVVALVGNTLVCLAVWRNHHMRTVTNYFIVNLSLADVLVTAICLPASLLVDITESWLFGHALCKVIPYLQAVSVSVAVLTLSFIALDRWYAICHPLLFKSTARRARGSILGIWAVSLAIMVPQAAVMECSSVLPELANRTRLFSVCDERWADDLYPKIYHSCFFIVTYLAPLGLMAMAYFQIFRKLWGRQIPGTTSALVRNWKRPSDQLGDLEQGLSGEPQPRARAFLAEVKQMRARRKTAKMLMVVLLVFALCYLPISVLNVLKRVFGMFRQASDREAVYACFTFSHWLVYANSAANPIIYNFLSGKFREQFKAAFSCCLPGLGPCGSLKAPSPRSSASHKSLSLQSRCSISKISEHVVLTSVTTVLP

SMILES	tested on	assay	test system	setting	how to read	quantity	result
COc1cc(CCC[P+](c2ccccc2)(c2ccccc2)c2ccccc2)c(OC)c2c1OCO2.[I-]	CCRF-CEM	SRB	–	–	–	Log10GI50	-5.79 log M
CCCN(CCC)c1c([N+](=O)[O-])cc(C(F)(F)F)cc1[N+](=O)[O-]	anti-BL mouse monoclonal antibody	binding, indirect competitive ELISA	–	pH 7.4, 1% methanol	–	IC50	> 1 µg/mL
CN1CCN(c2cc(-c3ccncc3)c(-c3ccc4ccccc4c3)nn2)CC1	Orexin/Hypocretin receptor type 1 (HCRTR1, Homo sapiens, UniProt O43613)	antagonist, FLIPR	–	10 µM	–	inhibition	-28.8%
CCCN(CCC)c1c([N+](=O)[O-])cc(C(C)C)cc1[N+](=O)[O-]	anti-BL mouse monoclonal antibody	binding, indirect competitive ELISA	–	pH 7.4, 1% methanol	–	IC50	> 1 µg/mL
O=C(Cc1cc(C(F)(F)F)cc(C(F)(F)F)c1)NC1CCOC1=O (stereo not shown)	ExpR1 (Pectobacterium carotovorum)	cellulase activity, antagonist	Pectobacterium carotovorum, single-ExpR1 strain	5 µM, 4 h, with: OHHL 5 µM	–	inhibition	4%
CCCCC1(CCCC)CN(c2ccccc2)c2cc(SC)c(OCC(=O)N[C@@H](C(=O)NCC(=O)O)c3ccccc3)cc2S(=O)(=O)C1	–	item: LDL cholesterol	human, serum	20 mg once daily, day 9	–	serum LDL-C	68.8 mg/dL
O=C(Cc1ccc(I)cc1)N[C@H]1CCOC1=O	ExpR1 (Pectobacterium carotovorum)	cellulase activity, antagonist	Pectobacterium carotovorum, single-ExpR1 strain	5 µM, 4 h, with: OHHL 5 µM	–	inhibition	73%
C[C@H]1CN(c2n[nH]c3nc(N[C@H]4CC[C@H](NS(=O)(=O)CCC(F)(F)F)CC4)ncc23)CCO1	TNF receptor-associated factor 2 (Homo sapiens, UniProt Q12933)	Kinobeads competition, item: TRAF2	–	0.16 µM, unit not given	relative to: vehicle	remaining binding	1.05
[Ni+2]	PP2C	enzyme activity	–	concentration not given	–	activity class	active
CC(C)CC(=O)OC[C@H]1O[C@@](C#N)(c2ccc3c(N)ncnn23)[C@H](O)[C@@H]1O	AMPA glutamate receptor rat	radioligand binding	–	20 µM	–	inhibition	-3%
CC[C@H](C)[C@@H]1NC(=O)[C@@H]2CCCN2C(=O)[C@H](CC(C)C)NC(=O)[C@H](CC(C)C)NC(=O)CNC(=O)[C@@H](NC(=O)[C@@H](NC(=O)[C@H](CC(=O)O)NC(=O)CNC(=O)[C@@H](NC(=O)[C@H](C)NC(=O)CNC(=O)[C@H](CCCCN)NC(=O)[C@H](CC(C)C)NC(=O)[C@H](CC(C)C)NC(=O)[C@H](CCCCN)NC(=O)CNC(=O)[C@@H](NC(=O)[C@@H](N)CC(C)C)C(C)C)C(C)C)C(C)C)CSSC[C@@H](C(=O)O)NC1=O	–	RNA-seq, item: Rps18-ps3 mRNA	mouse traumatic brain injury, frontal cortex and hippocampus	dose not given	relative to: TBI plus compound vs TBI	log2 fold change	-1.73
CCCCCC(=O)CC(=O)N[C@H]1CCOC1=O	ExpR1 (Pectobacterium carotovorum)	cellulase activity, agonist	Pectobacterium carotovorum, single-ExpR1 strain	200 µM, 4 h	relative to: OHHL	activation	29%
COc1cc2c(Oc3ccc4[nH]c(C)cc4c3F)ccnc2cc1OCC1(N)CC1	–	–	paediatric recurrent refractory sarcoma	concentration not given, whole group	–	grade 1 or 2 sinus arrhythmia	2.9%
COc1ccc(N2C(=O)N(c3c(C)cccc3Cl)Cc3cnc(Nc4ccc(C5CCN(C)CC5)cc4OC)nc32)nc1	Dual specificity protein kinase CLK3 (CLK3, Homo sapiens, UniProt P49761)	kinase activity	–	0.5 µM	–	inhibition	1.65%
C[C@H](C(=O)N[C@H]1COc2ccccc2[C@@H]1S(C)(=O)=O)c1ccc(F)cc1	L-type calcium channel, rat, Benzothiazepine site	binding	–	10 µM, Eurofins selectivity panel	–	inhibition	3%
CC[C@H](C)[C@H](NC(=O)[C@H](C)NC(=O)[C@H](CCCCN)NC(=O)[C@H](CC(C)C)NC(=O)[C@H](C)NC(=O)[C@@H](NC(=O)[C@H](Cc1c[nH]cn1)NC(=O)[C@H](CC(C)C)NC(=O)[C@@H](NC(=O)[C@@H](NC(=O)[C@H](CCCCN)NC(=O)[C@H](C)NC(=O)[C@H](C)NC(=O)[C@H](CO)NC(=O)[C@H](CCCCN)NC(=O)[C@H](Cc1ccccc1)NC(=O)[C@@H](NC(=O)[C@H](CCCCN)NC(=O)[C@H](CC(C)C)NC(=O)[C@H](Cc1ccccc1)NC(=O)[C@H](CO)NC(=O)[C@H](CCCCN)NC(=O)[C@H](Cc1c[nH]c2ccccc12)NC(=O)[C@H](CCCCN)NC(C)=O)[C@@H](C)O)[C@@H](C)O)C(C)C)[C@@H](C)O)C(=O)N[C@@H](CO)C(=O)N[C@@H](CO)C(N)=O	Pseudomonas aeruginosa	–	IPM-R	81 strains	–	MIC90	16 µg/mL (≈ 5.45 µM)

SMILES	tested on	assay	test system	setting	how to read	quantity	result
NCCc1c[nH]c2ccccc12	NMT from Rhinella marina	–	–	10 min, 30 °C	–	kcat	0.00052 s⁻¹
CCCCCC(=O)N[C@H]1CCOC1=O	ExpR1 (Pectobacterium carotovorum)	cellulase activity, agonist	Pectobacterium carotovorum, single-ExpR1 strain	200 µM, 4 h	relative to: OHHL	activation	5%
[Cd+2]	PP2C	enzyme activity	–	concentration not given	–	activity class	inactive
c1ccc2c(c1)OCC(C1=NCCN1)O2 (stereo not shown)	rat central imidazoline I2 receptor	radioligand binding	–	–	–	IC50	7 nM
Cn1c(=O)n(-c2ccc(C(C)(C)C#N)cc2)c2c3cc(-c4cnc5ccccc5c4)ccc3ncc21	NLRP3 inflammasome	–	–	10 µM	–	inhibition	-9.43%
c1ccc(C(NCCNC(c2ccccc2)c2ccccc2)c2ccccc2)cc1	NMDA receptor, rat, Phencyclidine site	binding	–	10 µM, Eurofins selectivity panel	–	inhibition	22%
C[C@]1(CO)Cc2ncn(-c3ccc(C#N)c(Cl)c3)c2C(=O)O1	–	–	Japanese subjects	80 mg single dose	–	drug-related Acne incidence	0%
Nc1nc2c(ncn2[C@@H]2O[C@@H]3COP(=O)(O)O[C@H]4[C@@H](O)[C@H](n5cnc6c(N)ncnc65)O[C@@H]4COP(=O)(O)O[C@@H]2[C@@H]3O)c(=O)[nH]1	STING (RUSH)	confocal microscopy	–	concentration not given, with: biotin	–	STING Golgi localization	~85%
N#Cc1c(N)nc(SCC(N)=O)c(C#N)c1-c1ccc(OCC2CC2)cc1	ERK1/2 rat	decrease of PMA-increased activity	H9c2	with: PMA pretreatment	–	EC50	26.8 ± 3.7 nM
O=C(Cc1cccc2ccccc12)N[C@H]1CCOC1=O	ExpR1 (Pectobacterium carotovorum)	cellulase activity, agonist	Pectobacterium carotovorum, single-ExpR1 strain	200 µM, 4 h	relative to: OHHL	activation	7%
COc1cc(Nc2ncc(F)c(Nc3ccc4c(n3)NC(=O)C(C)(C)O4)n2)cc(OC)c1OC	KATP potassium channel	–	–	–	–	IC50	> 10000 nM
O=C(Cc1ccc(Br)cc1)N[C@H]1CCOC1=O	ExpR1 (Pectobacterium carotovorum)	cellulase activity, agonist	Pectobacterium carotovorum, single-ExpR1 strain	200 µM, 4 h	relative to: OHHL	activation	4%
CO[C@H]1C[C@@H]2CC[C@@H](C)[C@@](O)(O2)C(=O)C(=O)N2CCCC[C@H]2C(=O)O[C@H]([C@H](C)C[C@@H]2CC[C@@H](OC(=O)NCCOCCOCCOCCOCCOCCOCCOCCOCCC(=O)N3CCc4cc(Cn5nc(-c6ccc7oc(N)nc7c6)c6c(N)ncnc65)ccc4C3)[C@H](OC)C2)C[C@@H](O)[C@H](C)/C=C(\C)[C@@H](O)[C@@H](OC)C(=O)[C@H](C)C[C@H](C)/C=C/C=C/C=C/1C	–	–	patients with advanced solid tumours	intravenous, 12 mg weekly, grade 3 or higher	–	diarrhoea incidence	0%
CCCCCCCCCC(=O)N[C@H]1CCOC1=O	ExpR1 (Pectobacterium carotovorum)	cellulase activity, agonist	Pectobacterium carotovorum, single-ExpR1 strain	200 µM, 4 h	relative to: OHHL	activation	6%
Nc1ncnc2c1ccn2[C@@H]1O[C@@H]2COP(=O)(O)O[C@H]2[C@H]1O	anti-cAMP antibody	binding, cAMP EIA, acetylated	–	–	–	EC50	> 10000 nM

Excerpt of the above:
SMILES	tested on	assay	test system	setting	how to read	quantity	result
Nc1nc2c(ncn2[C@@H]2O[C@@H]3COP(=O)(O)O[C@H]4[C@@H](O)[C@H](n5cnc6c(N)ncnc65)O[C@@H]4COP(=O)(O)O[C@@H]2[C@@H]3O)c(=O)[nH]1	STING (RUSH)	confocal microscopy	–	concentration not given, with: biotin	–	STING Golgi localization	~85%
N#Cc1c(N)nc(SCC(N)=O)c(C#N)c1-c1ccc(OCC2CC2)cc1	ERK1/2 rat	decrease of PMA-increased activity	H9c2	with: PMA pretreatment	–	EC50	26.8 ± 3.7 nM
O=C(Cc1cccc2ccccc12)N[C@H]1CCOC1=O	ExpR1 (Pectobacterium carotovorum)	cellulase activity, agonist	Pectobacterium carotovorum, single-ExpR1 strain	200 µM, 4 h	relative to: OHHL	activation	7%
